Measured values of several laboratories.
Every numbered part comes from another study and shows a few of its results, in no order. Changes are numbered by the printed parent chain.

Study 1
Target: Centromere-binding protein 1, full length, N-terminal tag (CBF1, Saccharomyces cerevisiae, UniProt P17106, residues 1-351)
Chain of UniProt P17106 (whole entry, looked up): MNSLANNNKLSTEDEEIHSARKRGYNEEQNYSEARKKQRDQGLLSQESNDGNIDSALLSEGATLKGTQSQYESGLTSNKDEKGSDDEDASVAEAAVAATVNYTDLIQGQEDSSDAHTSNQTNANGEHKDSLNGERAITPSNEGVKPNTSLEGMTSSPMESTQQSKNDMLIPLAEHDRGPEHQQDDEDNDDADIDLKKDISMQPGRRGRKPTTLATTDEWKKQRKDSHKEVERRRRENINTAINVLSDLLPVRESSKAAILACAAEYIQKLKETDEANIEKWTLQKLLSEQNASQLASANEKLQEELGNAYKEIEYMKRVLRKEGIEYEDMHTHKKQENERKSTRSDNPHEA
Method: protein-binding microarray
Molecule type: double-stranded DNA, one strand shown
Matrix: in vitro
Concentration: 0.8 µM
Notes: whole 60-bp probe, no competitor
Reading: higher = stronger binding
Constant ends, left off below: … GTCTTGATTCGCTTGACGCTGCTG
Strand	fluorescence intensity [a.u.]
GAAATTAAATAAAAAAACGTGATAAGCACGTGGTAG	7640
CTAGGAGAGGAAAAGGACGTGCATATATTCTTTTTC	536
TGTACGAAGCTATATCTGATGATTATAGTAGTTAGG	517
CTATTGATAATTTGGCATGTGCGATCTCTTCGATTC	685
GAACCTACCTTAAAACACGTTTCGTTTAAGACATAG	612
CCTAACTACTATAATCACGATGGATAGCTTCGTACA	559
CTAAAACAACAAAGCCATGTGATATCAGTCATTTTC	1230
CTATAGTAGGTTCACGTTATGTCTCTCTTTAGCTTC	599
GAAGAGCACACACGTGATGTGTCGTGAACTGTGTAG	11300
GAAGGTTACAAAATTCACATCATGAGTTTACGGTAG	543
GAACTCTCAGCAGGTCATCACACATATACTTCCTAG	564
GAATTCCCATTTGGTCAGGAGGTATAAATCATATAG	815
GAACAGAAGGATTCTCACCTGGTTGCAACCATATAG	504
CTAACAAGGAAGCATCATCACTTATTACAACCATTC	509
TGTACGAAGCTATAACATGTGAATATAGTAGTTAGG	661
GAATTACTAGTTTATTATCACGTGCGGTGTAAGTAG	11900
GAATCAGCACCTGCATAGGTGACCCTCTTTGGCTAG	536
TGTACGAAGCTATTGCGTGCTGATATAGTAGTTAGG	544
CTATTTTCAATGTTATACGTGATTTTATCTTTGTTC	635
CTAACTATATTAATCCACGTTTTTCAAACATATTTC	626
CCTAACTACTATATCCACGCAACATAGCTTCGTACA	531
GAATCTGTTTCTGGTTGCGTGATTTTTCTTTAGTAG	757
CTATGAGCTCACTGTGACGTCGATGCATGCGCGTTC	508
GAAGGATAAATGACGTGGGTGATCCACTGTCAATAG	507
CTAATAAAGGGAACACACGTGAAAGTGAAGGACTTC	1840

Study 2
Target: ABI1, truncated, D143A, DHFR fusion (Arabidopsis thaliana)
Method: DHFR PCA, deep sequencing
Matrix: yeast
Notes: methotrexate growth selection, single substitutions
Added: (+)-ABA 710 µM
Baseline: wild-type fitted maximum
Reading: higher = stronger binding
Starting sequence: PYL1, truncated, DHFR fusion (Arabidopsis thaliana); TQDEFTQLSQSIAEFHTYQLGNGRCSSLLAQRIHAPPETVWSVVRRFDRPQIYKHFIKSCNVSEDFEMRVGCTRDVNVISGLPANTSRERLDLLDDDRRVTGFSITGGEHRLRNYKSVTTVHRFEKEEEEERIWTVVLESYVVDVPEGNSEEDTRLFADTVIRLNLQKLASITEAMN
Variant	relative binding score [%]
E4A	97.7
P146H	51
R49S	97.9
H122S	84.4
H110S	77.1
R99Y	111
L93G	59.7
I172T	87.8
E67R	99.3
E67C	97.4
T101E	38.6
A158D	-2.43
R32M	94.3
E64D	104
N22W	102
A13M	76.9
T86H	111
D153P	2.51
N149T	90.4
R132Q	115
P83W	13.8
L164Q	98.6
T1A	105

Study 3
Target: Histone acetyltransferase KAT6A, both winged helices, GST fusion (KAT6A, Homo sapiens, UniProt Q92794, residues 1-181)
Method: protein binding microarray
Molecule type: double-stranded DNA, one strand shown
Matrix: in vitro
Concentration: not given
Notes: 8-mer, flanks averaged, mean of 2 arrays, mostly near background
Baseline: not given
Reading: higher = stronger binding
Target sequence (chain): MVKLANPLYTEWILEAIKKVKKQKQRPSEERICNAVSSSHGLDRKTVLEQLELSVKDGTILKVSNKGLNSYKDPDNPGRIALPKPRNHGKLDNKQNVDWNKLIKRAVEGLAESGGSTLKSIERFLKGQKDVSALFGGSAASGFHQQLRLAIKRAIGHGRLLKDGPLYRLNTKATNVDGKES
Strand	E-score
AACGCCGT	0.28
GGTGGAAC	-0.105
AGGTCTAG	-0.0744
GTCGAGGA	-0.147
GATGAGCA	-0.133
GACTTGAA	-0.168
ACTATTCA	-0.0646
AATATGGG	-0.164
CTACTCGA	0.00621
CAGACACG	0.165
AGAGCTCC	-0.0512
ACTAGGCT	-0.176
GTGCTGCA	0.00483
ATGGCTGA	-0.197
AAGGAGCG	0.243
GTCCCTGA	-0.239
TATGAACA	-0.145

Study 4
Target: RNA binding protein fox-1 homolog 2, RRM domain, GST-SBP tag (RBFOX2, Homo sapiens, UniProt O43251-10, residues 100-194)
Method: RNA Bind-n-Seq
Molecule type: RNA
Matrix: in vitro
Concentration: 365 nM
Notes: natural RNA segment, single round, ends assumed
Baseline: no-protein control
Reading: higher = stronger binding
Constant ends, left off below: GGGAGUUCUACAGUCCGACGAUC … UGGAAUUCUCGGGUGCCAA
Residues (chain): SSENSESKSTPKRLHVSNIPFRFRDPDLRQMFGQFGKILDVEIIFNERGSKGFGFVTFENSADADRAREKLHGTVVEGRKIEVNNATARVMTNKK
Strand	RBNS enrichment (R)
ACAAGGUCCUUGUGCAGGAGUCCCCAGAGACCUAGCUGCAGCUCAGGCCGACUGAAGCAGGCCUGGGGGUCUGUCGAGCAUUCCACAGCCUGCACAACACGGACUCAGCC	0.267
UUUAAAAUAAGUUAAAGGCAGUCCAGAGCUUUUCAGCCAAUUUGUCUCCUACUCUGUGUAAAUAUUUUUCCCUCCGGGCAGGGGAGCCAGGGUAGAGCAAAGGAGACAAA	0.598
UCUGAAAAUACAAAUUAUCUUCCUUUAAGAAACCUACCAUUAAGCCAGGUGUGGAUUGACACACCUUUAGUCUCAGGACUGAGGAGGCGAGGCAAGCAGAUCCCUGAGUU	0.341
AGAUCCUGCUUCCAUCUCCAGCUUCUAGCACUCUCCUAGAGAGGGACAGACUGGAGCCAUGGCCUUAGGCCAUAUAGCCUUACUAUCAAGUGUCUUCCUCCACGCGGAUU	0.206
AUACGUGCAGAUAGGGGGCAGGGUUCGUUUACAGUGCCAGCAAGCAUGGAGUUGUCAGUAUUGGAGUGAGUUGUCGAAUUGUAGCUGCAUCUUGGUUCCUUUACACAGCU	4.78
GAAUAAUUUAAAUGUGAGGAAAGAUAUCUGUGGUAGACAUGUCCUUCCAUGACUAAUUUCUAAUUGUAACUCAACACACAUUGAGGUAUGGGCCCUCCUCAGUGACUUUA	0.31
CUAAACACAACAGGGCACAGCAAAUACGACUUCAUUUGGCUUCGAGUUCCCCAGGCGCUGUAGACACAACAUGAAUCGGGCUCUCUGCUCUCUCCUUAGGGAGCUCGAGU	0.419
GGUAUAGCAUAUGUUUUUGUAAGUUUAUGCAUACAGUAAUUUUAAGUAAUUUCAGAAGAAAUUCUGCAAGCUUUUCAAAAUUGGACUUAAAAUCUAAUUCAAACUAAUAG	0.456
CAAAUUUUAAGUCUUUCCCAGGUAUGUCAGUCGAGUUGCCAUGAAUCCUCACCUGUAGGAGUUUCUGGGAUUCAUUUUAAGGAAACUGGAAGAAAAUUAAUGUUUUAAUG	0.733
AAAAAUAAUAAAUGGGUCCAGUCAGCCUGUAAUCGGUGCAAGCCAAGAACUCUUAACUGGAAGACGUUGUACUGUUGUGUAGAGCCUGAACCCAAACCCUGCGGUACCCA	0.447
AAAUUUUAGCUUAUAUAUGACGGUAUAUUUACAAAAAGAGAAAGAGAAAAUCUGGUAUUUGCAAUGAUCUGUGCCUUCUUUUUACCACCCUCUUGAUUGGAGCUUUUGUG	0.615
ACCACAGCCUGUGUUGACAGAUGUCUGUCUGUCCCUGUGCAAUCCAGUCUGGGCCUCAGACUCAGACUGCUGUAUCUAGCCUACGUUGUCACAAUUUCCUUCUCUGUUAA	0.244

Study 5
Target: Interferon regulatory factor 5, full length, phosphomimetic (IRF5, Homo sapiens, UniProt Q13568-2, residues 1-514, S451D/S453D/S456D/S462D)
Method: protein-binding microarray
Molecule type: double-stranded DNA, one strand shown
Matrix: in vitro
Concentration: 940 nM top
Notes: 60-bp whole probe
Added: salmon DNA 0.4 mg/ml
Baseline: random background probes
Reading: higher = stronger binding
Constant ends, left off below: GCCTAGCAC … GTCTTGATTCGCTTGACGCTGCTG
Strand	fitted relative affinity [z-score]
TTAGGTCTCGGATTCGGTTAGTGCTAG	1.84
GTCGGACTGGGGTTTCGGGACGTGCTA	2.19
TCATTTTTCTATATGCAACTGTGCTAG	1.21
GACGATTTCTGACTGGAGACGTGCTAG	0.0715
TTAGGTATCCTTATCCATTAGTGCTAG	0.444
TTGGAACTGAGACTGGATTAGTGCTAG	-0.0528
GCAGGGTATAGGCATTCCCTGTGCTAG	-0.623
TTAGGTATCGGGCTGGGTTAGTGCTAG	4.25
TTAGAACTGAGACTTGATTAGTGCTAG	-0.103
GACGGTATCCTCCTCCTGACGTGCTAG	0.59
CCAAGTTTATACCTTAGGTTGTGCTAG	-0.119
CCAAGTCTTGTTTTACAATTGTGCTAG	0.385
TCAGGACTCAGGTCTCCCACTGTGCTA	-0.00884
TTCTACTTCTCTTTTGGCTTGTGCTAG	1.61
TTAGGTCTCGGTTTCGATTAGTGCTAG	8.86
GGTGCTCTGCAGCTCAGGCAGTGCTAG	-1.05
GACGGACTGAGGTTTCGGGACGTGCTA	1.4
CCCACCCTCAGGGAGCCTGTGTGCTAG	-0.247
GACGGACTAGACACTGGGGACGTGCTA	-0.253
